Measurements collected from several papers.
Each line is one published result; not all experiments were run side by side. Several values in a cell are separate wells, animals, samples, runs or records. ± marks the error that the study gave.

| Compound | target or system | test | system | setting | how to read | endpoint | value |
| --- | --- | --- | --- | --- | --- | --- | --- |
| COc1ccccc1-c1ccncc1C(=O)Nc1nnc(OCc2ccc(Cl)cc2)s1 | HCT-116 BRCA2 wild-type |  |  | 0.5 µM | relative to: untreated | colony survival | 98% |
| O=C1NC2(CC2)COc2ncc(F)cc2[C@H]2COCCN2c2ccn3ncc1c3n2 |  |  | Sprague-Dawley rat, male, liver | oral, 10 mg/kg/day, 4 weeks dosing, end of recovery |  | organ-to-body weight ratio | 2.79 ± 0.128% |
| CCc1nc2ccc(OC(F)(F)F)cn2c1C(=O)NCc1ccc2oc(-c3ccc(Cl)cc3)nc2c1 | Mycolicibacterium smegmatis |  |  | 72 h |  | MIC | > 25 µM |
| CSc1cc(C)[nH]c(=O)c1CNC(=O)c1c(C)n([C@H](C)C2CCN(CC(F)(F)F)CC2)c2ccccc12 | KARPAS-422 | cell growth or viability |  | 8 days |  | GI50 | 0.041 µM |
| COc1ccccc1-c1n[nH]c2nc(NC3CCN(C(=O)Cc4ccc(F)cc4F)CC3)ncc12 |  | bead binding, competition bead pull-down, item: LINJ.35.1150 | Leishmania donovani extract | 10 µM | relative to: vehicle | relative abundance | 0.95 |
| Cc1ccc2c(n1)c(-c1cccc(S(C)(=O)=O)c1)c(C)n2C/C(F)=C/CN | GABAA receptor (rat) | binding, radioligand binding | rat tissue | 10 µM, Flunitrazepam |  | inhibition | 14% |
| CC[C@H](C)[C@H](NC(=O)[C@H](CC(=O)O)NC(=O)[C@@H](NC(=O)[C@@H]1CCCN1C(=O)[C@@H](N)CCCNC(=N)N)[C@@H](C)O)C(=O)N[C@@H](CCCCN)C(=O)N[C@H]1CSSC[C@@H]2NC(=O)[C@H](CCCNC(=N)N)NC(=O)CNC(=O)[C@H](CC(N)=O)NC(=O)[C@H]([C@@H](C)O)NC(=O)[C@H](CCCCN)NC(=O)CNC(=O)[C@H](Cc3ccccc3)NC(=O)[C@H](CCCNC(=N)N)NC(=O)[C@H](CO)NC(=O)[C@H](CCCCNC(=O)OCc3cc(OC)c(OC)cc3[N+](=O)[O-])NC(=O)[C@@H]3CSSC[C@@H](C(=O)N[C@@H](Cc4ccccc4)C(=O)O)NC(=O)[C@H](CC(=O)O)NC(=O)[C@H](CSSC[C@H](NC(=O)[C@H](CCC(N)=O)NC(=O)[C@H](Cc4ccc(O)cc4)NC(=O)[C@H](CO)NC(=O)[C@H](CCC(=O)O)NC(=O)[C@H](CO)NC1=O)C(=O)N[C@@H](Cc1ccccc1)C(=O)N1CCC[C@H]1C(=O)N[C@@H](C(C)C)C(=O)N3)NC(=O)[C@H](Cc1ccccc1)NC(=O)CNC(=O)[C@H](CC(N)=O)NC(=O)[C@H](C(C)C)NC2=O | human iPS-derived cardiomyocytes |  |  | 200 nM, after illumination 365 nm | relative to: no illumination | APD90 increase | 1.3 fold |
| Cc1ccc(OCCN(C)C)cc1C(=O)N[C@H](C)c1cc(-c2scnc2C)nc2ccccc12 | Vero E6 |  |  | 125 µM |  | viability | 1.4% and 1.2% |
| CC[C@H](C)[C@H](NC(=O)[C@H](CC(C)C)NC(=O)[C@H](CC(C)C)NC(=O)[C@H](CC(=O)O)NC(=O)[C@@H](NC(=O)[C@H](CCC(=O)O)NC(=O)[C@H](CCCCN)NC(=O)[C@H](Cc1ccc(O)cc1)NC(=O)[C@H](CCCCN)NC(=O)[C@H](Cc1c[nH]cn1)NC(=O)CNC(=O)CN)[C@@H](C)O)C(=O)N[C@@H](CC(C)C)C(=O)N[C@@H](Cc1ccccc1)C(=O)N[C@@H](CCCCN)C(=O)N[C@@H](CC(=O)O)C(=O)N[C@@H](CC(=O)O)C(=O)N[C@@H](Cc1ccc(O)cc1)C(=O)N[C@@H](Cc1ccccc1)C(=O)N[C@@H](C)C(=O)N[C@@H](CCCCN)C(=O)N[C@@H](CCCCN)C(=O)N[C@@H](CC(N)=O)C(=O)N[C@@H](CCC(=O)O)C(=O)N[C@@H](CCC(=O)O)C(=O)N[C@@H](CCCNC(=N)N)C(=O)N[C@@H](CCCCN)C(N)=O | HCV IRES RNA | RNA cleavage, MALDI-TOF mass spectrometry | hepatitis C virus |  |  | initial rate | 4.5 ± 1.4 %/min |
| Cc1ccc(N2CCC(N(C)C)CC2)cc1C(=O)N[C@H](C)c1cc(-c2cnn(C)c2)nc2ccccc12 | Vero E6 |  |  | 15.62 µM |  | viability | 85.6% and 85.3% and 83.9% |
| CN[C@@H]1[C@H](O)[C@H](NC)[C@H]2O[C@]3(O)[C@H](O[C@@H]2[C@H]1O)O[C@H](C)C[C@H]3NC(=O)Cc1ccc(Cl)cn1 | GABA transporter | binding |  | 10 µM |  | inhibition | -14% |
| Cc1nc2ccc(OC(F)(F)F)cn2c1C(=O)NCc1ccc2oc(-c3ccc(Cl)cc3)nc2c1 | Mycolicibacterium smegmatis |  |  | 72 h |  | MIC | > 100 µM |
| CC(C)CC(C(=O)N1CC2(CC1C#N)C(=O)Nc1ccccc12)N(C)C(=O)c1cc2c(F)cc(F)c(F)c2[nH]1 (stereo not drawn) | Human coronavirus 229E | cytopathic effect | MRC5 | 41.13 nM |  | inhibition | 100% |
| CC(C)(C)C(=O)OCOP(=O)(OCOC(=O)C(C)(C)C)C1CCCN(O)C1=O (stereo not drawn) | HCT-15 |  |  |  |  | log TGI | -4.83 log M |
| Cc1cc(Oc2nc(N3CC[C@@H](c4ccncc4)C3)ncc2F)[nH]n1 | Mycobacterium tuberculosis | OD | H37Rv PurF CRISPRi knockdown | 0.03125 µM, together with: anhydrotetracycline low |  | normalised growth | 10% and 8% |
| CC1(C)CC(=O)C2=C(C1)Oc1ccccc1C2C1C(=O)NC(=O)NC1=O (stereo not drawn) | 3T3-L1 pre-adipocytes | cell viability, MTT |  | 72 h |  | IC50 | > 100 µg/mL |
| Cc1cc(C(=O)Nc2nc3cccc(C)c3n2[C@H]2CCCCN(C(=O)/C=C/CN(C)C)C2)ccn1 | Trypanosoma brucei brucei |  | CLK1 C215S mutant expressing | 5 x EC50, 24 h |  | cell growth | 967% and 753% and 1000% |
| COc1ccccc1-c1n[nH]c2nc(N[C@H]3CC[C@H](NS(=O)(=O)CC(C)C)CC3)ncc12 |  | bead binding, competition bead pull-down, item: LMJF.35.3700 | Leishmania donovani extract | 10 µM | relative to: vehicle | relative abundance | 1.07 |
